Results collected from several papers.
Every numbered part comes from another study and shows a few of its results, in no order.

Study 1 — method: universal PBM; form: double-stranded DNA, one strand shown; matrix: in vitro; concentration: 600 nM; direction: higher = stronger binding; endpoint: E-score
Target: Sal-like protein 4, full length isoform A (SALL4, Homo sapiens, UniProt Q9UJQ4, residues 1-1053)
Chain of UniProt Q9UJQ4 (whole entry, looked up): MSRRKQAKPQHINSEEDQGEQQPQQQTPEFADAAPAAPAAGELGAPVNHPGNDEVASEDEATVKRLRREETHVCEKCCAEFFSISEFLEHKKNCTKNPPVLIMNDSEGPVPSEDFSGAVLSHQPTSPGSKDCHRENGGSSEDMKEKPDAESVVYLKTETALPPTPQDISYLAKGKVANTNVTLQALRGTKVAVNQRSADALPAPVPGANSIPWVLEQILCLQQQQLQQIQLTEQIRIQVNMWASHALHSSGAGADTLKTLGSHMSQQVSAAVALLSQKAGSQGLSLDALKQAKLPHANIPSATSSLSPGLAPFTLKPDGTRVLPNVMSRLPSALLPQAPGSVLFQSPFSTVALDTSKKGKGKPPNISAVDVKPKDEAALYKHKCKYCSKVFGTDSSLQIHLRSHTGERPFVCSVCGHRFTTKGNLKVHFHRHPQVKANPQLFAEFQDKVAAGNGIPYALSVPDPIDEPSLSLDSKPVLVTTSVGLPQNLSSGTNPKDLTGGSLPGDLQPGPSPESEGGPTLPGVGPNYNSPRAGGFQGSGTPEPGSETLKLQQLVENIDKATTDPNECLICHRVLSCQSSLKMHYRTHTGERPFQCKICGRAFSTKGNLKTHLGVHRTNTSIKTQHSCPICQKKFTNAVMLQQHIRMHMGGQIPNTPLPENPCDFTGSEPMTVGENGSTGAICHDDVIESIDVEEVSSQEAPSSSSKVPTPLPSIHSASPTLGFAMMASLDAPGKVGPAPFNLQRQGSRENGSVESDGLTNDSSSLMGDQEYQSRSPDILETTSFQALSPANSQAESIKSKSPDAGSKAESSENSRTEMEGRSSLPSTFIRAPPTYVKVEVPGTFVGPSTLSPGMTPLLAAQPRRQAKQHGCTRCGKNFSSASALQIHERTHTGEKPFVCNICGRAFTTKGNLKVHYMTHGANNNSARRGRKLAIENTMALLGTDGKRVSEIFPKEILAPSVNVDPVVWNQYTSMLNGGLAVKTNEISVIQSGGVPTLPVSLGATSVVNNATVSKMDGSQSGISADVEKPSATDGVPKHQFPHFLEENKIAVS
Notes: 8-mer, flanks averaged, mean of replicates
GAGATCTC: -0.174
AGACTGTC: -0.117
AGGAGTGC: -0.179
AGGCATGG: -0.171
CGCCGGAC: -0.368
AATAGAAT: 0.303
AAAGGGTC: -0.0341
GCCGCTGA: -0.223
CGGGTAGC: -0.184
AAACACAT: 0.164
ATTGTGCG: 0.0426
GGGCGTAA: -0.163
AGGGCACT: -0.327
ACTAGTCC: -0.044
CAGGAATG: -0.0627
TAGCTCAA: 0.0254
CCCAACAC: -0.195
AGCTTGCA: -0.0177
CCAGGACC: -0.269
GCCATTCC: -0.233
GATACCAA: 0.108
AAAGGAGA: 0.102
GACCTCTC: -0.213
CGAGCGGA: -0.285

Study 2 — method: protein-binding microarray; form: double-stranded DNA, one strand shown; matrix: in vitro; concentration: 250 nM; notes: 60-bp whole probe; together with: salmon DNA 0.4 mg/ml; baseline: random background probes; direction: higher = stronger binding; endpoint: log fluorescence; all sequences stand within: GCCTAGCAC … GTCTTGATTCGCTTGACGCTGCTG
Target: Interferon regulatory factor 5, full length, phosphomimetic (IRF5, Homo sapiens, UniProt Q13568-2, residues 1-514, K96S/S451D/S453D/S456D/S462D)
TTAGGAATCGGTATCGGTTAGTGCTAG: 6.61 z-score
TCATAAACTAGAAACTGAACTGTGCTA: 0.692 z-score
TACGGTTTCGGGACTGGGGACGTGCTA: 4.51 z-score
TAAGGACTGGGTCTCGGTTAGTGCTAG: 0.184 z-score
GTGTATATGACAATGATGTTGTGCTAG: 0.269 z-score
GCCTTTTTTTTTTTTTCTGAGTGCTAG: 0.685 z-score
TTAGATATCGGGACTGGATCAGTGCTA: 1.03 z-score
GACGAATTCAGTATCGAGACGTGCTAG: 2.84 z-score
ATAGGACTGGACTATCGGTTAGTGCTA: 6.13 z-score
TTAGATTTCAGTATCGGTTAGTGCTAG: 9.03 z-score
GATGAACTGAGTTTCGAGACGTGCTAG: 5.06 z-score
CACGGTTTCGACACTGGGGACGTGCTA: 4.14 z-score
TCTGTAATTCTTAGAACAGCGTGCTAG: -0.125 z-score
TTAGATTTCGGGACGGGATTAGTGCTA: 3.01 z-score
GACGGACTGGACACTAGGGACGTGCTA: -0.51 z-score
TTAGCACTGCTACTGCTTTAGTGCTAG: -0.169 z-score
GAAGGACTGGACTTTCGGGACGTGCTA: 4.66 z-score
GACGATATCAGTATCGAGAAGTGCTAG: 3.66 z-score
GACGGACTGGGTATTGGGACGTGCTAG: -0.737 z-score

Study 3 — method: protein binding microarray; form: double-stranded DNA, one strand shown; matrix: in vitro; concentration: not given; baseline: not given; direction: higher = stronger binding; endpoint: E-score
Target: Histone acetyltransferase KAT6A, winged helix 2, GST fusion (KAT6A, Homo sapiens, UniProt Q92794, residues 85-181)
Notes: 8-mer, flanks averaged, mean of 2 arrays, mostly near background
Construct (chain): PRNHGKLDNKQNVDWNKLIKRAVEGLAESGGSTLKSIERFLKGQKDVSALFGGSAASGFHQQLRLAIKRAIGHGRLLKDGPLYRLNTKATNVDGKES
ACCATACT: -0.0468
ACGTATTA: -0.00364
AGCGTAAA: 0.0108
ACTAATAA: 0.105
GCTTACCA: 0.181
AAACTTCA: -0.0635
TTCACAAA: 0.111
ACCTCGCC: 0.00073
CTATGTCA: 0.121
TTACGTAA: -0.37
CGGGCACA: 0.011
AGAAAATC: 0.0536
TGGCCAAA: -0.0403
AAAAACCT: 0.162
GTCCTACA: 0.0644
CGGCGAAG: 0.104
GAGTCCAC: -0.089
AAGCATCT: -0.121
ATACTTTC: -0.0544
CCAGCTAA: -0.0714
GCGAAAAC: 0.2
ATACATGA: -0.133
CAAGCTAG: 0.106
CGGGCCAG: 0.0846
AATTTTGG: 0.106

Study 4 — method: RNA Bind-n-Seq; form: RNA; matrix: in vitro; concentration: 365 nM; baseline: no-protein control; direction: higher = stronger binding; endpoint: RBNS enrichment (R)
Target: RNA binding protein fox-1 homolog 2, RRM domain, GST-SBP tag (RBFOX2, Homo sapiens, UniProt O43251-10, residues 100-194)
Notes: natural RNA segment, single round, ends assumed
All sequences stand within: GGGAGUUCUACAGUCCGACGAUC … UGGAAUUCUCGGGUGCCAA
Target sequence (chain): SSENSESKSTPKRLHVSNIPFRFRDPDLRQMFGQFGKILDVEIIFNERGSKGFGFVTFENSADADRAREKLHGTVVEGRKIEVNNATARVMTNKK
CCAUUUGCUUUAUUUGUGCAAAUGCCAGGGUUGGUUUUUAUUUUUAUUUUUGCUAUUUACCUAAAAAGAAAAAGAGACAAUGCUUCAGUCAACUGCUUUUUUAUUUAAAA: 0.851
UACUCCGUGGGGAGCAUGUACAGAGCUCUGUGUAUACACAGCUUCACACCCACCAGAUUGUUACUACAGUGGGUUGGGUUUUCAUACAGACGUAAAUUUUGAGAGAAAAG: 8.01
CGUGUACCCUAGCUCCCCAUCACUGCGCGCCCUCCAAGCUAGAGAGAUGGGACCCCAGGGGGGGUUAGAGCUGGGUGUCCCGAAAACCCAGGCUGGGGCUAUGCGCCGUC: 0.359
UAGGACCUGGCGCACACAAGAGCAGGAGAACAGGGCUGGAGCAGCUGUUGACGGGACCCCUGCUGUCUUAAGCUUUUCCCCAUAGUGCCUAUAGUUUCCAAAGAAACUUA: 0.593
UAUCUGAAUGUCUCAAUCCAAAACUUGAAGCUCUUUAGACCAAGAACUAGGGAGAGGAAAAAGGAGCUCAUCUCUCAGCCCCUUCUUCAUAGCAUUUACAGCCCCGGGCU: 0.854
AGUGUUUGUAUGAAUCCUCUCUAGGGGGAGCCUACAAGCAGUUGGUCCGUGCCCGGUUCACUCGGUCUUUCCUGGCCCAAAUCAUAGGACUCCGUAUGCAUUACAAGUAC: 0.331
AAAUGAAAUAUUUCAAAGACUGAAUAUUUUCAAAGAAAAUGAAUAAUUCAUUGCCCUUGUGAUUUAGAAGAUUAUAACAGCUGUAUUUCAUAUUUGCCUCCUUAUAUAUA: 0.451
CUACCAGCUAUUGACAGAGUACAGAGUUGAUUUUUUAAUAAAAAGUUAUAUAUAAUUAUCCCUUUAAUUAAAGGGAACAGAUGGGCGUUUCUAGUUUUAAGCAGGCAGGA: 0.747

A few entries again (study 2):
GCCTTTTTTTTTTTTTCTGAGTGCTAG: 0.685 z-score
GATGAACTGAGTTTCGAGACGTGCTAG: 5.06 z-score
TCTGTAATTCTTAGAACAGCGTGCTAG: -0.125 z-score
TTAGATTTCAGTATCGGTTAGTGCTAG: 9.03 z-score
TCATAAACTAGAAACTGAACTGTGCTA: 0.692 z-score
TACGGTTTCGGGACTGGGGACGTGCTA: 4.51 z-score
GTGTATATGACAATGATGTTGTGCTAG: 0.269 z-score
TAAGGACTGGGTCTCGGTTAGTGCTAG: 0.184 z-score
TTAGATATCGGGACTGGATCAGTGCTA: 1.03 z-score
GACGAATTCAGTATCGAGACGTGCTAG: 2.84 z-score
